# Literature values as cited in several papers.
# Numbered parts are unrelated; values within a part may stem from several laboratories. ± marks the error that the study gave.
# Chain of UniProt P25084 (whole entry, looked up): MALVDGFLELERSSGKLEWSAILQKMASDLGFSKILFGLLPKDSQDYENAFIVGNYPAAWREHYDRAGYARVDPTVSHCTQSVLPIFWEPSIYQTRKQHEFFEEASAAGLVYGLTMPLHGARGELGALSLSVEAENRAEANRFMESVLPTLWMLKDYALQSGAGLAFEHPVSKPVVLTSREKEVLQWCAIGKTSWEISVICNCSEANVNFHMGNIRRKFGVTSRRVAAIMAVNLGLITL

# Block 1
# Organism: Pseudomonas aeruginosa
Compound,MIC [µM]
CC[C@H](C)[C@H](NC(=O)CNC(=O)[C@H](CC(=O)O)NC(=O)[C@H](CCCNC(=N)N)NC(=O)[C@@H](NC(=O)[C@H](CC(N)=O)NC(=O)[C@H](CCCNC(=N)N)NC(=O)CNC(=O)[C@@H](NC(=O)[C@H](CCCCN)NC(=O)[C@H](CCC(=O)O)NC(=O)[C@H](CC(C)C)NC(=O)[C@H](CCCCN)NC(=O)[C@H](CCCCN)NC(=O)[C@H](Cc1c[nH]c2ccccc12)NC(=O)[C@H](CO)NC(=O)[C@@H]1CCCN1)C(C)C)[C@@H](C)CC)C(=O)N[C@H](C(=O)N[C@@H](CCCCN)C(=O)N[C@@H](C)C(=O)NCC(=O)N1CCC[C@H]1C(=O)N[C@H](C(=O)N[C@H](C(=O)N[C@@H](CCC(=O)O)C(=O)N[C@H](C(=O)N[C@@H](CC(C)C)C(=O)NCC(=O)O)C(C)C)C(C)C)C(C)C)[C@@H](C)CC,8
CC[C@H](C)[C@H](NC(=O)[C@H](CCCNC(=N)N)NC(=O)[C@@H](NC(=O)[C@@H]1CCCN1C(=O)[C@H](CCCNC(=N)N)NC(=O)[C@@H](NC(=O)[C@@H]1CCCN1C(=O)[C@H](CC(C)C)NC(=O)[C@H](CC(C)C)NC(=O)CNC(=O)[C@H](Cc1c[nH]cn1)NC(=O)[C@@H]1CCCN1C(=O)CNC(=O)[C@H](Cc1ccccc1)NC(=O)[C@H](CC(=O)O)NC(=O)[C@H](Cc1c[nH]c2ccccc12)NC(=O)[C@H](C)NC(=O)[C@@H](NC(=O)[C@H](C)N)[C@@H](C)O)[C@@H](C)CC)[C@@H](C)CC)C(=O)N[C@@H](CCCNC(=N)N)C(=O)N1CCC[C@H]1C(=O)N[C@@H](CC(C)C)C(=O)N[C@@H](CS)C(=O)NCC(=O)N[C@@H](CCCCN)C(=O)N[C@@H](CC(=O)O)C(=O)O,32
CC[C@H](C)[C@H](NC(=O)[C@H](CCCCN)NC(=O)[C@H](CCC(N)=O)NC(=O)[C@H](C)NC(=O)[C@H](Cc1ccc(O)cc1)NC(=O)[C@H](CCC(=O)O)NC(=O)[C@H](CCCCN)NC(=O)[C@H](C)NC(=O)[C@H](CC(C)C)NC(=O)[C@H](CCCNC(=N)N)NC(=O)[C@H](CC(C)C)NC(=O)CNC(=O)[C@H](CCCCN)NC(=O)[C@H](C)NC(=O)[C@H](CCCNC(=N)N)NC(=O)[C@H](CC(C)C)NC(=O)[C@H](CCCCN)NC(=O)[C@H](CCC(N)=O)NC(=O)[C@H](C)NC(=O)[C@H](CC(C)C)NC(=O)[C@H](CCCCN)NC(=O)[C@H](CO)NC(=O)[C@H](CCCCN)NC(=O)[C@@H](N)Cc1c[nH]c2ccccc12)C(=O)N[C@@H](CC(C)C)C(=O)N[C@@H](CC(N)=O)C(=O)O,2

# Further values, each from its own experiment
SMILES,tested on,assay,system,setting,measurement,result
COc1ccc(Nc2nc(Nc3ccc(OCC[18F])cc3)ncc2Br)cc1,,,"S180 tumour-bearing mice, liver","intravenous, 120 min",tissue uptake,0.5 ± 0.06 %ID/g
CC(=O)OC12COC1CC(O)C1(C)C(=O)C(OC(=O)C3CC3)C3=C(C)C(OC(=O)C(O)C(C=C(C)C)NC(=O)OC(C)(C)C)CC(O)(C(OC(=O)c4cccc(OC(F)F)c4)C21)C3(C)C (stereo not drawn),CFPAC-1,cytotoxicity,,,IC50,0.39 nM
O=C1C=C(Br)/C(=C/Br)O1,"Transcriptional activator protein LasR (lasR, Pseudomonas aeruginosa, UniProt P25084)","reporter gene, antagonist, lasB-gfp(ASV) reporter",Escherichia coli,100 µM,inhibition,90%
